Published values gathered from unrelated publications.
Numbered parts are unrelated; each lists some results of a single study. “And” joins repeats or separate records; there may be more than shown.
UniProt P20309, sequence (whole entry, looked up): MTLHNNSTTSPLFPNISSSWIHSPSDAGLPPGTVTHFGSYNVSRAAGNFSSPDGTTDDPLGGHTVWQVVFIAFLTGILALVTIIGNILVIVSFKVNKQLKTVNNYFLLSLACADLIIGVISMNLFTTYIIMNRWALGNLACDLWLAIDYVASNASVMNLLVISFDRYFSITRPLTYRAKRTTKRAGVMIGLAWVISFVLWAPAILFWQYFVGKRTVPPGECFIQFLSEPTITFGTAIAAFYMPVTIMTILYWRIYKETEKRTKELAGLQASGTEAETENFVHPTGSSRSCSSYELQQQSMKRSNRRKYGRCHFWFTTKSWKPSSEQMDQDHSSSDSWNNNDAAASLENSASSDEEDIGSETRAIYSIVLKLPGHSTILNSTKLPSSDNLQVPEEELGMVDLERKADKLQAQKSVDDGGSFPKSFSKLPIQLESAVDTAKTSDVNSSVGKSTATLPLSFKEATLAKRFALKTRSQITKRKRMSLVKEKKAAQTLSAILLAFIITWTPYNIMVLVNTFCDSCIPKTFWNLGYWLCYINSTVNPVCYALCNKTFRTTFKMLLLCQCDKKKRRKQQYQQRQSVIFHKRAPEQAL
UniProt P35372, sequence (whole entry, looked up): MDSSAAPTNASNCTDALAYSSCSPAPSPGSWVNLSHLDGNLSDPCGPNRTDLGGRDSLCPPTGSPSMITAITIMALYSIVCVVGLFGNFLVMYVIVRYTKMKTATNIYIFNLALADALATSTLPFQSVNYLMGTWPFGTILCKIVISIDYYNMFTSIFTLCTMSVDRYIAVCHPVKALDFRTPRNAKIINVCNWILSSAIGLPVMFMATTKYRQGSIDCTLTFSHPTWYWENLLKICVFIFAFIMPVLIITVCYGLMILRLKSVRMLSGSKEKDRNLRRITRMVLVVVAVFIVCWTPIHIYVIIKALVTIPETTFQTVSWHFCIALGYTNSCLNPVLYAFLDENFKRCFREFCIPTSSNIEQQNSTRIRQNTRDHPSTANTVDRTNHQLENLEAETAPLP
UniProt Q01959, sequence (whole entry, looked up): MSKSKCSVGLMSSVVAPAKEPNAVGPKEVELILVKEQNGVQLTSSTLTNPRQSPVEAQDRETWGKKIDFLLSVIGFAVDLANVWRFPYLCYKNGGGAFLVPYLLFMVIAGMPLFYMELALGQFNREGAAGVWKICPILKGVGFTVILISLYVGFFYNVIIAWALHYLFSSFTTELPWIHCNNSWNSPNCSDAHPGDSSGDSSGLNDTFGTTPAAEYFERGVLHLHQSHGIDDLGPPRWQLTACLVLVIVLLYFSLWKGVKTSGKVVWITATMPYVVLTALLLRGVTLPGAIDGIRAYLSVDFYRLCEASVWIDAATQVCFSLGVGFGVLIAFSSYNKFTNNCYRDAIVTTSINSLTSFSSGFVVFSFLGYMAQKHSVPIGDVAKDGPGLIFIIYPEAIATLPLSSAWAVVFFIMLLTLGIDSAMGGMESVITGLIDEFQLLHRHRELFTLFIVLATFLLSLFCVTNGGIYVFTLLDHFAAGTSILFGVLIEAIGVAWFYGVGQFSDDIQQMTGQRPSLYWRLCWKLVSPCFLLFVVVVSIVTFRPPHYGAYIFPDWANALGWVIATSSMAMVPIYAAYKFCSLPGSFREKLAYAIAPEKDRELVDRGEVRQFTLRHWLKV
UniProt P23975, sequence (whole entry, looked up): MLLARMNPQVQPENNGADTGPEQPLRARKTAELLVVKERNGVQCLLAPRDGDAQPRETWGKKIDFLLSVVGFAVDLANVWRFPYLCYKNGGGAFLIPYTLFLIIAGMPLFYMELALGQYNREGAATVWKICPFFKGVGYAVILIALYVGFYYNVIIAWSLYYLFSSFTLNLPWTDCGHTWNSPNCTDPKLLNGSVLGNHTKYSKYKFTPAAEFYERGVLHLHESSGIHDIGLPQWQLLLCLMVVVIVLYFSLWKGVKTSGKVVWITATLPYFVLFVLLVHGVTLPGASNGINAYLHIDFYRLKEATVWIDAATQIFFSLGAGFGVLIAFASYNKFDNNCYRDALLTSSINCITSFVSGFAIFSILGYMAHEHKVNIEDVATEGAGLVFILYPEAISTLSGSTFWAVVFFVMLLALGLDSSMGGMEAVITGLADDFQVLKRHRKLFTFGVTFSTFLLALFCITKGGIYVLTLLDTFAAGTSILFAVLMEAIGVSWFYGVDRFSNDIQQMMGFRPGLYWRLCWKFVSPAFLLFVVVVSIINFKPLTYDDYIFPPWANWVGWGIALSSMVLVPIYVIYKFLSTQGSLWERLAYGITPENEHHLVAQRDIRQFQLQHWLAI
UniProt P41145, sequence (whole entry, looked up): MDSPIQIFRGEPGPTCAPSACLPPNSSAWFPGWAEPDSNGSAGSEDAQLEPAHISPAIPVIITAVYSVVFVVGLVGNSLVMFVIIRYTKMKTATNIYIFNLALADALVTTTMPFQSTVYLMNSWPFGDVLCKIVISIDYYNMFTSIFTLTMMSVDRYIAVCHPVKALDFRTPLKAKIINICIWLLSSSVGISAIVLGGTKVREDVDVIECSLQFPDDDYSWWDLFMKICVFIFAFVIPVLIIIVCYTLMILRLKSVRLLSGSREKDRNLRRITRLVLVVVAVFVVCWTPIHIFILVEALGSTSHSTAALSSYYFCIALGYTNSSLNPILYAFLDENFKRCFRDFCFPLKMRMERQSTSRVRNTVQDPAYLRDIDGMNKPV
UniProt P21918, sequence (whole entry, looked up): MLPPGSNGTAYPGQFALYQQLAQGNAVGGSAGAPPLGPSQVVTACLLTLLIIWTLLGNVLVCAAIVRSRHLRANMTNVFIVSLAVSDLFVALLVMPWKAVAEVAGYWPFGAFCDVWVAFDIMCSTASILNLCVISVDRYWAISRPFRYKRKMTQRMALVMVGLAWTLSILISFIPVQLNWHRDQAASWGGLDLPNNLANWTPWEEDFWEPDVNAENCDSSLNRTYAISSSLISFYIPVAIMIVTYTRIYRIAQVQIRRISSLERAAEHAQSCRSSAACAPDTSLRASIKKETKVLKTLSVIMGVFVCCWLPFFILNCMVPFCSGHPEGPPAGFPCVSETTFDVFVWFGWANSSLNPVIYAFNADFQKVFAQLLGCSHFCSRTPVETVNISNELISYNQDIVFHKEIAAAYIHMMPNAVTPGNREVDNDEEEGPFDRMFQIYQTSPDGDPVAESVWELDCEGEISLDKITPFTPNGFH
UniProt P31645, sequence (whole entry, looked up): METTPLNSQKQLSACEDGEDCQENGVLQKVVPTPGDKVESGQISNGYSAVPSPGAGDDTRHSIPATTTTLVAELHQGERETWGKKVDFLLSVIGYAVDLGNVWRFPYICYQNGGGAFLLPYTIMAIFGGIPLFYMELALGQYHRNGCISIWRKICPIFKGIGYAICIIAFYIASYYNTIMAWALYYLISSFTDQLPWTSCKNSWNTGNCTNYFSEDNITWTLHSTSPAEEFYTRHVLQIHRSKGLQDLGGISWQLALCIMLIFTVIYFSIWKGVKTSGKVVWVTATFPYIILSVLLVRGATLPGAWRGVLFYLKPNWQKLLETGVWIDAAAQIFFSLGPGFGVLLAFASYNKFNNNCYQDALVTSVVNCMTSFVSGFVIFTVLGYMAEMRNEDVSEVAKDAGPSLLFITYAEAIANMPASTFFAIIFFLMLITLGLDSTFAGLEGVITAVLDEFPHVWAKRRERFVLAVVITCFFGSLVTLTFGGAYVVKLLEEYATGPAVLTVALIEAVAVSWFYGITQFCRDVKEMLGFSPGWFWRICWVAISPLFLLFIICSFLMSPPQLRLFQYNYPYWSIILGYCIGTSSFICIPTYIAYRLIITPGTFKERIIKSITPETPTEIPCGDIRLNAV

Sample 1 — cell line: HEK-293T/ACE2; concentration: concentration not given; time: 16 (unit not given); baseline: vehicle
Compound | viability [%]
CC1(C)O[C@@H]2C[C@H]3[C@@H]4CCC5=CC(=O)CC[C@]5(C)[C@@]4(F)[C@@H](O)C[C@]3(C)[C@]2(C(=O)CCl)O1 | 90.5
Cc1ccc(C(=O)c2cc(O)c(O)c([N+](=O)[O-])c2)cc1 | 80.3
CC1(C)O[C@@H]2C[C@H]3[C@@H]4C[C@H](F)C5=CC(=O)C=C[C@]5(C)[C@H]4[C@@H](O)C[C@]3(C)[C@]2(C(=O)CO)O1 | 103
CC(=O)OCC(=O)[C@@]1(O)CC[C@H]2[C@@H]3CCC4=CC(=O)CC[C@]4(C)[C@H]3C(=O)C[C@@]21C | 92.9
COCCc1ccc(OCC(O)CNC(C)C)cc1 (stereo not drawn) | 104
CC(=O)NS(=O)(=O)c1ccc(N)cc1 | 98.1
CCCC1O[C@@H]2C[C@H]3[C@@H]4CCC5=CC(=O)C=C[C@]5(C)[C@H]4[C@@H](O)C[C@]3(C)[C@]2(C(=O)CO)O1 (stereo partly drawn) | 94.8
C[C@H](N)[C@H](O)c1cccc(O)c1 | 101

Sample 2 — organism: Leishmania donovani
Structure (SMILES): c1ccc(Oc2ccc(Nc3c4c(nc5ccccc35)CCC4)cc2)cc1
read-out | technique | strain | sample | concentration | notes | inhibition
parasite growth | – | DD8 amphotericin B-resistant | intracellular amastigotes | 0.2 µM | – | 12% and 8% and 11%
parasite viability | resazurin | DD8 | promastigotes | 6.66 µM | – | 99% and 100% and 91%
parasite growth | – | – | – | 6.66 µM | promastigote | 41%
parasite growth | – | DD8 amphotericin B-resistant | promastigotes | 0.066 µM | – | 1% and 2%
parasite growth | – | DD8 amphotericin B-resistant | promastigotes | 0.033 µM | – | 4% and 2% and 1%

Sample 3 — organism: Sarcocystis neurona; read-out: parasite growth; concentration: concentration not given; notes: first screen; baseline: untreated
Structure (SMILES) | log2 fold change
COc1ccc(CCN)cc1OC | 0.0636
CCCCCCCCCOc1ccc2[nH]cc(CCN)c2c1 | 0.09
C[N+]1(C)CCN(c2ccccc2)CC1.[I-] | -0.035
COc1cc(N)c(Cl)cc1C(=O)NC1CN2CCC1CC2.Cl (stereo not drawn) | -0.02
CCN(CC)CCOC(=O)C(O)(c1ccccc1)c1ccccc1.Cl | -0.00689
COc1ccc2[nH]cc(C3=CCNCC3)c2c1.O=C(O)CCC(=O)O | -0.00468
CC(NC(C)(C)C)C(=O)c1cccc(Cl)c1.Cl (stereo not drawn) | -0.02

Sample 4 — read-out: binding; technique: radioligand binding; concentration: 10 µM
Structure (SMILES): CCCCN(CCCC)C(=O)CN1C[C@@H](c2cc(OC)c3c(c2)OCO3)[C@H](C(=O)O)[C@H]1CC(C)(C)CCC
target | inhibition [%]
CHRM3 (Homo sapiens, UniProt P20309) | 10.3
SLC6A3 (Homo sapiens, UniProt Q01959) | 23
SLC6A4 (Homo sapiens, UniProt P31645) | -7.99
SLC6A2 (Homo sapiens, UniProt P23975) | 38.5
OPRM1 (Homo sapiens, UniProt P35372) | 58.5
DRD5 (Homo sapiens, UniProt P21918) | 30.5
OPRK1 (Homo sapiens, UniProt P41145) | 69.9

For quick reference, copied from above (sample 3):
Structure (SMILES) | log2 fold change
CCN(CC)CCOC(=O)C(O)(c1ccccc1)c1ccccc1.Cl | -0.00689
C[N+]1(C)CCN(c2ccccc2)CC1.[I-] | -0.035
